Measured values of several laboratories.
Each line is one published result; not all experiments were run side by side.
UniProt Q9H2X6, sequence (whole entry, looked up): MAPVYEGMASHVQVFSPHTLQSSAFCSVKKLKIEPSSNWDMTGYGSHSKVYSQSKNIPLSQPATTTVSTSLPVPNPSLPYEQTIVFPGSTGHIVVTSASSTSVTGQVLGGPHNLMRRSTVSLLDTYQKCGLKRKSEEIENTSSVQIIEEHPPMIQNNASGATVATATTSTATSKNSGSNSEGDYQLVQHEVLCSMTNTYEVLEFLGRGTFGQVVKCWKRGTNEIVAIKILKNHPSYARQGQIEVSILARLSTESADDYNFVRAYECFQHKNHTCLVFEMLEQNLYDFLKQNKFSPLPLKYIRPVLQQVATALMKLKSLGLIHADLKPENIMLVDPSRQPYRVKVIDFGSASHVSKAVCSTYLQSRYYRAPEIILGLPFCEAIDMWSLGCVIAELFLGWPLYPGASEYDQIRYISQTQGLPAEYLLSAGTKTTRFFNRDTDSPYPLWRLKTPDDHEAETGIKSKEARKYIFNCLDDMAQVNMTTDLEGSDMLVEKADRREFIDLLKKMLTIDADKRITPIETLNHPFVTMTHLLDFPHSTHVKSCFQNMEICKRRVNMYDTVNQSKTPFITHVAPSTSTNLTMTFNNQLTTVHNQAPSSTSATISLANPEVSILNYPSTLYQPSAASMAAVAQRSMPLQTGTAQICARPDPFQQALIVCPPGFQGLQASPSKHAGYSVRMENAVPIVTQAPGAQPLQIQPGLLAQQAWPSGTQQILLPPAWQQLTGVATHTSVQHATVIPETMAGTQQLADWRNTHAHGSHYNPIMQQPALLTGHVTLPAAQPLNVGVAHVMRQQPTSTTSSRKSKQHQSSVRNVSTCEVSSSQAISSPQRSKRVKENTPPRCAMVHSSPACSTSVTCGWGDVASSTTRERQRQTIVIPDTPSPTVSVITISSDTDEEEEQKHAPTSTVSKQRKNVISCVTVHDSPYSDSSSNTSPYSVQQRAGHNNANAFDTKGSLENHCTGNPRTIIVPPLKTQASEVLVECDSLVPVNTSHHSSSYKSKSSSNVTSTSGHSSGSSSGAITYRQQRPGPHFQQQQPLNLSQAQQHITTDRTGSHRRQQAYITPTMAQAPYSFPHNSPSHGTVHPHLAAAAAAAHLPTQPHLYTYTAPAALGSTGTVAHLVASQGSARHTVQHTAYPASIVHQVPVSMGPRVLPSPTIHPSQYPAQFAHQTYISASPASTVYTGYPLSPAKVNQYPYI
UniProt P62344, sequence (whole entry, looked up): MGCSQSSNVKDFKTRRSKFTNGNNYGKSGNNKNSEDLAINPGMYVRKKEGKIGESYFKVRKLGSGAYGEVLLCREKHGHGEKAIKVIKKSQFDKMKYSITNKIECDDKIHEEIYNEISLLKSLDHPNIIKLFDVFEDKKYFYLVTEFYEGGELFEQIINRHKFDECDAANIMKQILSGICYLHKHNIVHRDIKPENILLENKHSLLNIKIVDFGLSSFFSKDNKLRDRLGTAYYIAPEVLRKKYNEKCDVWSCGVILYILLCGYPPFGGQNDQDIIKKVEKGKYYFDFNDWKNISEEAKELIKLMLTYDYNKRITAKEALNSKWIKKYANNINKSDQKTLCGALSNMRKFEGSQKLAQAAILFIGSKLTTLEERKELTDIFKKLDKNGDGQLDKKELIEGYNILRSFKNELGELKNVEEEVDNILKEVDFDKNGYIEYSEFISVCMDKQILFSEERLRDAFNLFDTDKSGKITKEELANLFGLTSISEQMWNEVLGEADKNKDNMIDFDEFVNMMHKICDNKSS
UniProt P49286, sequence (whole entry, looked up): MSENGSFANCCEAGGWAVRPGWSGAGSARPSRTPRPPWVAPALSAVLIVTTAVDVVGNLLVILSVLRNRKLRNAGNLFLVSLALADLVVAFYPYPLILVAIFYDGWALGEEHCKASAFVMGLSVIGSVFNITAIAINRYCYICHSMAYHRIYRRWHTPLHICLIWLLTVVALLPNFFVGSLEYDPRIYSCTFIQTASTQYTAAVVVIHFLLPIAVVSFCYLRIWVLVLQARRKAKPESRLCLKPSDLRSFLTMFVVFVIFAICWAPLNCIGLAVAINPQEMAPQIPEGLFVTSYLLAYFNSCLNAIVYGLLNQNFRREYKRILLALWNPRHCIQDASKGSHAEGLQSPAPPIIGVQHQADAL
UniProt Q9P286, sequence (whole entry, looked up): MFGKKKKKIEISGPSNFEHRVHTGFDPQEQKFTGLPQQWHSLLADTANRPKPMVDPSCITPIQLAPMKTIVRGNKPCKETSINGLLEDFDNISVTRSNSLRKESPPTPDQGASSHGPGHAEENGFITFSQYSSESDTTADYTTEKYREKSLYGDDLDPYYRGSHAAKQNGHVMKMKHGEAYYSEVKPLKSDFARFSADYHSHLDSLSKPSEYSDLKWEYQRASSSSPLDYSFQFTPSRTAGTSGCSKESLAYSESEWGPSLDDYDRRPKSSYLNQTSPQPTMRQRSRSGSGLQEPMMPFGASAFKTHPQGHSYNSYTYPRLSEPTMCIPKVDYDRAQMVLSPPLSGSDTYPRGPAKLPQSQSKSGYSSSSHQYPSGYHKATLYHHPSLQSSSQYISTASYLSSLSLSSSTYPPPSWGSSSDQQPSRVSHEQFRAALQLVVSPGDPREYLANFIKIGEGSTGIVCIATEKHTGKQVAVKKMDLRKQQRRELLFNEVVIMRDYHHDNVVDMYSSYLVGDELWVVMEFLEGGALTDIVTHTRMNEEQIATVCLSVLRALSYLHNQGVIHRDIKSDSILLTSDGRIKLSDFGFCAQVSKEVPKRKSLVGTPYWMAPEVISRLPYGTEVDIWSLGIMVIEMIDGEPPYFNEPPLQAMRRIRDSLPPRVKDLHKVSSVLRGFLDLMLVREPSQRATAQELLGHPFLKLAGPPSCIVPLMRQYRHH
UniProt P03372, sequence (whole entry, looked up): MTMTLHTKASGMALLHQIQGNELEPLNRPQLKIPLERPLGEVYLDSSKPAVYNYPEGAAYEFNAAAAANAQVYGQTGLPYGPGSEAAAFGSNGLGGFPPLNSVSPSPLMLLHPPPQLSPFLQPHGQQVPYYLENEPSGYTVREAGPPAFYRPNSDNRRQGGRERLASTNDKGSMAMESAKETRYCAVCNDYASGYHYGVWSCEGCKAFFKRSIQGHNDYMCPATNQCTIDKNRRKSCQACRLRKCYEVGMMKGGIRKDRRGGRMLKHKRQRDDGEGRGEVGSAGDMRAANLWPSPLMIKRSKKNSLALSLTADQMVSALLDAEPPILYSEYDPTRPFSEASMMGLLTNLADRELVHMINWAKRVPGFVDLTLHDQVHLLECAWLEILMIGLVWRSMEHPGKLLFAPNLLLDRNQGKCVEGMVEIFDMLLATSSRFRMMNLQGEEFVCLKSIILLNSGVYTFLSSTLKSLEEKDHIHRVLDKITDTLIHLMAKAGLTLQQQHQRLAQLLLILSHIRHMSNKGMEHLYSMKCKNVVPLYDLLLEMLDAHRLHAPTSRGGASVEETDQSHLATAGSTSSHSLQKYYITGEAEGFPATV
UniProt O14757, sequence (whole entry, looked up): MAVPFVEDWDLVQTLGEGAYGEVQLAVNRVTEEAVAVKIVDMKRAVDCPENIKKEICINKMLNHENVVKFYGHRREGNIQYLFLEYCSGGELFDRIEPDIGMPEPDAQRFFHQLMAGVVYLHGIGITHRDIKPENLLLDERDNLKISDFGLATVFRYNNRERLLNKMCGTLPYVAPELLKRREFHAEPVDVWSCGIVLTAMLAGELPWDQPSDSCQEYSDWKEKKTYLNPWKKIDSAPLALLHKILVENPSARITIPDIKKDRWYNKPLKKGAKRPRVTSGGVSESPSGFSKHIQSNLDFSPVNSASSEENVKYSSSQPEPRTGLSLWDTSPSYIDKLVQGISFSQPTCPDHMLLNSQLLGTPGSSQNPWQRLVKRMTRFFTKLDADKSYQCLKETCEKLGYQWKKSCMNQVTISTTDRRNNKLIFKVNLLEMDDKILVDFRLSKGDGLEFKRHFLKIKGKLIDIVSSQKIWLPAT

Structure (SMILES) | tested on | assay | system | setting | measurement | result
Cc1cnn2ncc(-c3ccnc(N(C)C)n3)c2c1 | CDPK1 (Plasmodium falciparum, UniProt P62344) | binding | – | 1 µM | remaining binding | 78%
NC/C(=C\F)COc1cccc(Cn2c(=S)[nH]c(=O)c3[nH]cnc32)c1 | Estrogen receptor (ESR1, Homo sapiens, UniProt P03372) | ligand displacement, radioligand | – | 10 µM | inhibition | < 50%
Cc1cc([C@@H](C)Nc2ccccc2C(=O)O)c2nc(N3CCC(F)(F)CC3)c(C#N)c(=O)n2c1 | FLT3 (Homo sapiens, UniProt P36888) | binding, competition with immobilised ligand | – | 1 µM | remaining binding | 93%
CN1CC(Oc2cnc(C#N)cc2-c2ccn3nc(NC(=O)C4CC4)cc3c2)C1 | HIPK2 (Homo sapiens, UniProt Q9H2X6) | enzyme activity, inhibitor | – | 1 µM | inhibition | -1%
C=CC(=O)N1CCC(COCC(=O)N2CCN(c3nc(-c4cnc(N)nc4C(F)F)nc(N4CCOC[C@@H]4C)n3)CC2)CC1 | PIK3CA (Homo sapiens, UniProt P42336, E545A) | binding, competition with immobilised ligand | – | 1 µM | remaining binding | 0%
CC(=NNC(=O)c1cccnc1)c1ccc(Nc2nnc(-c3ccc(Cl)cc3)c3ccccc23)cc1 | HepG2 | cell growth or viability, MTT | – | 0.312 µM, 24 h | viability | 93.6%
CNc1ncc2c(/C=C/C(=O)N3CCC(OC)CC3)nn(Cc3cccc(C(F)(F)F)c3)c2n1 | CHEK1 (Homo sapiens, UniProt O14757) | enzyme activity, inhibitor, radiometric | – | 1 µM | remaining activity | 91%
O=C(c1ccc(F)cc1)C1CCN(CCn2c(=O)[nH]c3ccccc3c2=O)CC1 | – | metabolic stability | rat, liver microsomes | 30 min | compound remaining | 34.2%
CC(=NNC(=O)c1ccccc1O)c1ccc(Nc2nnc(-c3ccc(Cl)cc3)c3ccccc23)cc1 | HepG2 | cell growth or viability, MTT | – | 0.625 µM, 24 h | viability | 99.9%
Nc1ncnc2occ(-c3ccc(NC(=O)Nc4cc(C(F)(F)F)ccc4F)cc3)c12 | ACVR2B (Homo sapiens, UniProt Q13705) | cell-free assay | – | 20 µM | remaining signal | 18%
Cc1noc(C)c1Cn1cc(N2C(=O)CN(Cc3cccc(O)c3)C2=O)cn1 | – | – | male Sprague-Dawley rat, plasma | oral, 10 mg/kg, 2 h | concentration | 4.21 ng/mL
CCCCC(=O)Nc1ccc(-c2ccc3ncn(CCC)c(=O)c3c2)cn1 | PAK5 (Homo sapiens, UniProt Q9P286) | binding, competition with immobilised ligand | – | 0.5 µM | remaining binding | 90%
C1=C/COCc2cc(ccc2OCCN2CCCC2)Nc2nccc(n2)-c2cccc(c2)COC/1 | NEK5 (Homo sapiens, UniProt Q6P3R8) | binding | – | 0.1 µM | remaining binding | 77%
COc1cc(-c2cncc3c2CN(C)Cc2cc(N4CCNCC4)ccc2-3)cc(OC)c1OC | EPHA3 (Homo sapiens, UniProt P29320) | enzyme activity, inhibitor | – | 1 µM | remaining activity | 109%
CCCN(O)N=Nc1ccc(S(=O)(=O)Nc2nccs2)cc1 | – | DPPH scavenging, absorbance | – | 180 µg/mL | inhibition | 16.4%
COc1cc2c(CCNC(C)=O)c(I)[nH]c2cc1[N+](=O)[O-] | MTNR1B (Homo sapiens, UniProt P49286) | β-arrestin recruitment, agonist | MT2 | 90 min | Emax | 96%

Some of these lines once more:
Structure (SMILES) | tested on | assay | system | setting | measurement | result
CCCCC(=O)Nc1ccc(-c2ccc3ncn(CCC)c(=O)c3c2)cn1 | PAK5 (Homo sapiens, UniProt Q9P286) | binding, competition with immobilised ligand | – | 0.5 µM | remaining binding | 90%
O=C(c1ccc(F)cc1)C1CCN(CCn2c(=O)[nH]c3ccccc3c2=O)CC1 | – | metabolic stability | rat, liver microsomes | 30 min | compound remaining | 34.2%
Cc1cc([C@@H](C)Nc2ccccc2C(=O)O)c2nc(N3CCC(F)(F)CC3)c(C#N)c(=O)n2c1 | FLT3 (Homo sapiens, UniProt P36888) | binding, competition with immobilised ligand | – | 1 µM | remaining binding | 93%
